Results gathered from unrelated publications.
Lines come from different studies, so protocols differ. Values joined by “and” are separate records of one study, mostly repeats; a detail may differ. ± gives the spread as reported.

For `O=S(=O)(Nc1ccccc1)c1ccc(NC(=S)Nc2ccccc2)cc1`, “serum enzyme activity” read 72 U/L (refers to: ALT; female mouse, blood; oral, 5 mg/kg daily, 14 days).
`CC[C@H](C)[C@H](NC(=O)[C@H](Cc1ccccc1)NC(=O)[C@H](CCC(=O)O)NC(=O)[C@H](CCCNC(=N)N)NC(=O)[C@H](C)NC(=O)[C@H](C)NC(=O)[C@H](CCC(N)=O)NC(=O)[C@H](CCC(=O)O)NC(=O)[C@H](CCC(=O)O)NC(=O)[C@H](CC(C)C)NC(=O)[C@H](Cc1ccc(O)cc1)NC(=O)[C@H](CO)NC(=O)[C@H](CO)NC(=O)[C@@H](NC(=O)[C@H](CC(=O)O)NC(=O)[C@H](CO)NC(=O)[C@@H](NC(=O)[C@H](Cc1ccccc1)NC(=O)[C@@H](NC(=O)CNC(=O)[C@H](CCC(=O)O)NC(=O)[C@H](C)NC(=O)CCc1cnc[nH]1)[C@@H](C)O)[C@@H](C)O)C(C)C)C(=O)N[C@@H](C)C(=O)N[C@@H](Cc1c[nH]c2ccccc12)C(=O)N[C@@H](CC(C)C)C(=O)N[C@H](C(=O)N[C@@H](CCCNC(=N)N)C(=O)NCC(=O)N[C@@H](CCCNC(=N)N)C(=O)N[C@@H](CCCCNC(=O)COCCOCCNC(=O)COCCOCCNC(=O)CC[C@H](NC(=O)CCCCCCCCCCCCCCCCC(=O)O)C(=O)O)C(=O)NCC(=O)NCC(=O)N[C@@H](CO)C(=O)N[C@@H](CCCCNC(=O)[C@H](CCCCNc1c(NCCCCCN(O)C(=O)CCC(=O)NCCCCCN(O)C(=O)CCC(=O)NCCCCCN(O)C(C)=O)c(=O)c1=O)Nc1c(NCCCCCN(O)C(=O)CCC(=O)NCCCCCN(O)C(=O)CCC(=O)NCCCCCN(O)C(C)=O)c(=O)c1=O)C(=O)O)C(C)C` [zirconium-89 labelled] has a tissue uptake of 0.707 %ID/g and 0.593 %ID/g and 0.664 %ID/g and 0.753 %ID/g and 0.655 %ID/g (ex vivo gamma counting; Sprague-Dawley rat, male, lung; intravenous, 1 nmol, 24 h).
For `CN1CC[C@@H](c2c(O)cc(O)c3c(=O)cc(-c4ccc(C(F)(F)F)cc4Cl)oc23)[C@@H]1CO`, “patients with adverse event” read 22.5% (refers to: Anemia; relapsed or refractory haematological malignancies; oral, dose not given, all arms).
For `CCN1[C@@H](C(=O)NC23CCC(C(=O)O)(CC2)CC3)[C@H](c2cccc(Cl)c2F)[C@]2(C(=O)Nc3cc(Cl)ccc32)C12CCCCC2`, “grade 3/4 anemia incidence” read 23.8% (patients with advanced solid tumours; oral, dose not given, all doses).
`CC(C)CC(=O)OC[C@H]1O[C@@](C#N)(c2ccc3c(N)ncnn23)[C@H](O)[C@@H]1O` gave a fraction unbound of 0.295 (monkey plasma; 0.9 µM).
For `C[C@@H]1NC(=O)[C@H](CCCCNC(=O)CO/N=C/C(=O)NCCCC[C@@H]2NC(=O)[C@@H](Cc3ccccc3)NC(=O)[C@H](CC(=O)O)NC(=O)CNC(=O)[C@H](CCCNC(=N)N)NC2=O)NC(=O)CNC(=O)[C@@H]2CCCN2C(=O)[C@H](CCCCNC(=O)CO/N=C/C(=O)NCCCC[C@@H]2NC(=O)[C@@H](Cc3ccccc3)NC(=O)[C@H](CC(=O)O)NC(=O)CNC(=O)[C@H](CCCNC(=N)N)NC2=O)NC(=O)[C@H](CCCCNC(=O)CN2CCCNCCNCCCNCC2)NC(=O)[C@H](CCCCNC(=O)CO/N=C/C(=O)NCCCC[C@@H]2NC(=O)[C@@H](Cc3ccccc3)NC(=O)[C@H](CC(=O)O)NC(=O)CNC(=O)[C@H](CCCNC(=N)N)NC2=O)NC(=O)CNC(=O)[C@@H]2CCCN2C(=O)[C@H](CCCCNC(=O)CO/N=C/C(=O)NCCCC[C@@H]2NC(=O)[C@@H](Cc3ccccc3)NC(=O)[C@H](CC(=O)O)NC(=O)CNC(=O)[C@H](CCCNC(=N)N)NC2=O)NC1=O` [copper-64 labelled], the tissue uptake was 5.03 ± 0.41 %ID/g (normal mice, liver; intravenous, 0.74 MBq, 24 h post-injection).
`CC(=O)c1c(C)c2cnc(Nc3ccc(C4CCN(CCS(C)(=O)=O)CC4)cn3)nc2n(C2CCCC2)c1=O` gave an AST increased of 30.9% (HR+/HER2- advanced breast cancer patients; oral, dose not given, all grades).
`CO[C@H]1C[C@@H]2CC[C@@H](C)[C@@](O)(O2)C(=O)C(=O)N2CCCC[C@H]2C(=O)O[C@H]([C@H](C)C[C@@H]2CC[C@@H](OC(=O)NCCOCCOCCOCCOCCOCCOCCOCCOCCC(=O)N3CCc4cc(Cn5nc(-c6ccc7oc(N)nc7c6)c6c(N)ncnc65)ccc4C3)[C@H](OC)C2)C[C@@H](O)[C@H](C)/C=C(\C)[C@@H](O)[C@@H](OC)C(=O)[C@H](C)C[C@H](C)/C=C/C=C/C=C/1C`: “AEs causing dose modification” 87.5% (phase 1 dose escalation; advanced solid tumour patients; intravenous, 10 mg weekly, any grade).
`O=S(=O)(c1ccc(O)cc1)c1ccc(O)cc1` gave an equilibrium concentration of 0.487 ± 0.02 mg/L (control solution without PVC; 120 h, pH 7.0, 298 K, initial 0.5 mg/L, 200 rpm).
For `O=C(Nc1ccccc1)C1CCN(C(=O)Oc2cccnc2)CC1`, “adverse event incidence” read 13% (refers to: Illusion; healthy female human; concentration not given, all doses pooled).
The excretion of `COc1ccnc(C(=O)N[C@H]2COC(=O)[C@H](Cc3ccccc3)[C@@H](OC(=O)C(C)C)[C@H](C)OC2=O)c1OCOC(=O)C(C)C` is reported as 12 to 42% (rats, mice and rabbits, urine; oral, dose not given).
Under “ALT increased, grade ≥3”, `CC(C)(O)c1cc(Nc2cc(Oc3cn(C4CC4)nc3C3CCOCC3)ccn2)ccn1` is recorded as 0% (grade 4 glioma expansion cohort; oral, 50 mg twice daily).
`C=CCNc1c(O)cc2c(O)c1C[C@@H](C)C[C@H](OC)[C@H](O)[C@@H](C)/C=C(\C)[C@H](OC(N)=O)[C@@H](OC)/C=C\C=C(/C)C(=O)N2`: “patients with infusion site pain” 33% (unresectable or metastatic STS, GIST, other; intravenous, 90 mg/m^2).
With `C[C@]1(CO)Cc2ncn(-c3ccc(C#N)c(Cl)c3)c2C(=O)O1` the Cmax was 432 nM (human; oral, 10 mg, fasted, single dose, geometric mean).
`COC[C@@H](CC(C)C)NC(=O)c1ccc(C)c(C)c1`: “PCE to total erythrocyte ratio” 0.588 (Hsd:ICR (CD-1) mouse, female, bone marrow; oral, 2000 mg/kg, 24 h).
For `COc1ncccc1-c1cnn2ccc(N3CCN(C(=O)OC(C)C)CC3)nc12`, the drug concentration was 1900 nM (mouse nerve ligation model, brain; oral, 3 mg/kg, 120 min after last dose, repeat dosing day 1).
`N=C(N)NCCC[C@@H](NC(=O)[C@@H](N)Cc1ccccc1)C(=O)N[C@@H](Cc1ccccc1)C(=O)N[C@@H](CCCCN)C(N)=O`: “apparent volume of distribution” 27.8 L (early Huntington's disease patients, plasma; subcutaneous, 25 mg daily, day 7, median).
`C[C@H]1CN(C(=O)CC#N)[C@]12CCN(c1ncnc3[nH]ccc13)C2`: “AUC at NOAEL” 21 ng·h/mL (minipig, male; dermal, 12 mg/kg repeated, 1 months).
Under “subjects with infections and infestations”, `O=C(Nc1ccccc1)C1CCN(C(=O)Oc2cccnc2)CC1` is recorded as 7.7% (adverse event reporting; healthy women; oral, 100 mg, 9 days).
For `Cn1cncc1-c1c(F)cncc1NC(=O)c1c(N)nn2cc(F)cnc12`, “patients grade ≥3 Hyperkalemia” read 0% (human patients; oral, 180 mg once daily, 2 weeks on 1 week off).
For `N[C@@H]1c2ccccc2OC12CCN(c1cnc3c(N4CCCc5ncccc54)n[nH]c3n1)CC2`, “serious TEAE grade ≥3” read 75% (advanced solid tumour patients; oral, 150 mg once daily).
For `CCC[C@@](N)(CO)CCc1ccc(OCCCCCC(C)C)cc1`, the AUC(0-inf) was 7.48 µM·h (dog, male hounds, plasma; oral capsule, 10 mg/kg, geometric mean).
`C=CC(=O)N1CC[C@H](n2nc(C#Cc3cc(OC)cc(OC)c3)c3c(N)ncnc32)C1` — result for “adverse drug reaction incidence”: 12.5% (patients with advanced solid tumours; oral, dose not given, Stomatitis, any grade, QD, added: phosphate-binding therapy).
Under “grade ≥3 hyponatraemia”, `NC(=O)[C@H]1CCN(c2ncnc(N)c2F)C[C@@H]1N1CCC[C@@H](Nc2cc(Cl)cc(C(F)(F)F)c2)C1=O` is recorded as 0% (B-cell malignancy patients; oral, 410 mg twice daily, dose).
With `OB(O)CSc1nc2ccccc2n1Cc1ccc(C(F)(F)F)cc1C(F)(F)F` the concentration was 3900 ng/mL (mouse, plasma; subcutaneous, 25 mg/kg, 8 h).
`CCCCCOc1ccc(-c2ccc(-c3ccc(C(=O)N[C@H]4C[C@@H](O)[C@@H](OCC[N+](C)(C)C)NC(=O)[C@@H]5[C@@H](O)[C@@H](C)CN5C(=O)[C@H]([C@@H](C)O)NC(=O)[C@H]([C@H](O)[C@@H](O)c5ccc(O)cc5)NC(=O)[C@@H]5C[C@@H](O)CN5C(=O)[C@H]([C@@H](C)O)NC4=O)cc3)cc2)cc1` has a Cmin of 2190 ng/mL (adult patients not in ICU, plasma; intravenous, 400 mg loading dose, after first dose, geometric mean).
`C[C@@H]1OC(=O)NN=C1c1ccc(-c2ccc(F)cc2)c(C(F)(F)F)c1` — result for “patients with adverse event”: 50% (phase I trial, refers to: AST increased worst grade 1; human patients; 20 mg loading then 1 mg daily).
The logD (chromatographic) of `c1ccc2[nH]cnc2c1` is reported as 0.61 (pH 7.4).
`COc1cc2c(Oc3ccc4[nH]c(C)cc4c3F)ccnc2cc1OCC1(N)CC1` — result for “grade 3 abdominal pain”: 0% (paediatric recurrent refractory sarcoma; 8 mg).
Under “mean daily dermal uptake”, `CC(C)(c1ccccc1)c1cc(-n2nc3ccccc3n2)c(O)c(C(C)(C)c2ccccc2)c1` is recorded as 12.9 ng/kg body weight/day (exposure assessment; human, age 2-3 years; spray sunscreen).
`CCc1ccc(CC/C=C/c2ccc3c(c2)C(=O)CC3)cc1` — result for “platelet distribution width”: 49.8% (Sprague-Dawley rat, male, blood; oral, 450 mg/kg/day, 14 days).
`CC(C)n1c(C2CCNCC2)nc2c([N+](=O)[O-])c(Br)c(Br)cc21` — result for “adverse events causing interruption”: 6% (refers to: Asthenia; AML patients; 125 mg).
`COc1ccc2c(c1)CN[C@@H](C(=O)N[C@H](CN1CC[C@@](C)(c3cccc(O)c3)[C@@H](C)C1)C(C)C)C2` gave an AUCtotal of 2170 ng·h/mL (Sprague-Dawley rat, plasma; intraperitoneal, 5 mg/kg).
The AUC of `Cn1ncc(-c2nc(N[C@H]3CC[C@H](N)CC3)ncc2Cl)c1CC1CC1` is reported as 702 ng·h/mL (HPLC-MS/MS; patients, plasma; oral, 5 mg, day 5).
`CC(C)C[C@H](NC(=O)[C@H](CCCCN)NC(=O)OCC1c2ccccc2-c2ccccc21)C(=O)N[C@H](C(=O)N[C@@H](Cc1ccccc1)C(=O)N[C@@H](Cc1ccccc1)C(=O)N[C@@H](CCCCN)C(=O)NCC(=O)N[C@@H](Cc1ccccc1)C(=O)N[C@@H](C)C(=O)N[C@@H](Cc1c[nH]c2ccccc12)C(=O)N[C@@H](CC(N)=O)C(=O)N[C@H](C(=O)N[C@H]1CSSC[C@@H](C(=O)N[C@@H](Cc2c[nH]cn2)C(=O)N[C@@H](CCCNC(=N)N)C(=O)N[C@@H](CCCNC(=N)N)C(=O)N[C@@H](C)C(=O)N[C@@H](CC(N)=O)C(N)=O)NC(=O)[C@H](C(C)C)NC(=O)[C@H](CCCNC(=N)N)NC(=O)[C@H](C(C)C)NC(=O)CNC(=O)[C@H](CC(N)=O)NC(=O)[C@H](CCCNC(=N)N)NC(=O)[C@H](Cc2ccc(O)cc2)NC(=O)[C@H](C(C)C)NC1=O)C(C)C)C(C)C` has a spasm score of 0 (ICR mouse; ip, 5 mg/kg; direction not given).
`O=C1Nc2cc3[nH]nc(-c4ccncc4)c3cc2CN1Cc1ccccc1`: “patients with TEAE” 32% (refers to: subretinal fluid; patients with advanced solid tumours; intravenous, dose not given, both schedules pooled).
`COc1ccc(C[C@@H]2NC(=O)[C@H]([C@@H](C)O)NC(=O)[C@@H]3[C@@H]4CCN3C(=O)[C@@H]3Cc5cn(c6ccc(F)cc56)CCCCCCN(Cc5ccc(cc5)CCNC(=O)[C@]5(C)CCCN5C2=O)C(=O)CCC(=O)N[C@@H](C)C(=O)N[C@H](CNC(=O)CCCCC[N+](C)(C)C)C(=O)N[C@@H](Cc2cccc(c2)CNC(=O)CO4)C(=O)N3)cc1`: “participants with adverse event” 3.2% (refers to: Insomnia; humans; concentration not given, Study-003).
`O=c1ccc2cc3ccoc3cc2o1` has an accuracy of 117% (post-procedure stability; rat plasma; 200 ng/mL, 3 h, room temperature).

Excerpt of the above:
The logD (chromatographic) of `c1ccc2[nH]cnc2c1` is reported as 0.61 (pH 7.4).
`COc1cc2c(Oc3ccc4[nH]c(C)cc4c3F)ccnc2cc1OCC1(N)CC1` — result for “grade 3 abdominal pain”: 0% (paediatric recurrent refractory sarcoma; 8 mg).
Under “mean daily dermal uptake”, `CC(C)(c1ccccc1)c1cc(-n2nc3ccccc3n2)c(O)c(C(C)(C)c2ccccc2)c1` is recorded as 12.9 ng/kg body weight/day (exposure assessment; human, age 2-3 years; spray sunscreen).
`CCc1ccc(CC/C=C/c2ccc3c(c2)C(=O)CC3)cc1` — result for “platelet distribution width”: 49.8% (Sprague-Dawley rat, male, blood; oral, 450 mg/kg/day, 14 days).
`CC(C)n1c(C2CCNCC2)nc2c([N+](=O)[O-])c(Br)c(Br)cc21` — result for “adverse events causing interruption”: 6% (refers to: Asthenia; AML patients; 125 mg).
